Experimental data of several laboratories.
Each line is one published result; not all experiments were run side by side. “And” joins repeats or separate records; there may be more than shown. ± marks the error that the study gave. ≈ marks a conversion by molar mass, not a printed value.
Organism: Escherichia coli

Structure (SMILES)	assay	system	conditions	scale	measurement	result
CC1(C)S[C@@H]2[C@H](NC(=O)[C@H](N)c3ccccc3)C(=O)N2[C@H]1C(=O)O	–	ATCC 10546	–	–	MBC	2 µg/mL
[Cl][Fe]([Cl])[Cl]	–	–	24 h, 37 °C	–	MBC	> 1600 µM
CC1CCC(C(C)C)C(OC2=C(Cl)C(=O)c3ccccc3C2=O)C1 (centres unmarked)	–	MTCC 405	10 µg/mL	–	zone of inhibition	19 mm
CC(=O)O[C@@H]1CC(=O)O[C@H](C)C/C=C/C=C/[C@H](O[C@H]2CC[C@H](N(C)C)[C@@H](C)O2)[C@H](C)C[C@H](CC=O)[C@H](O[C@@H]2O[C@H](C)[C@@H](O[C@H]3C[C@@](C)(O)[C@@H](O)[C@H](C)O3)[C@H](N(C)C)[C@H]2O)C1	–	ATCC 25922	–	–	MIC	640 µM
OC[C@H]1O[C@@H]2O[C@H]3[C@H](O)[C@@H](O)[C@@H](O[C@H]4[C@H](O)[C@@H](O)[C@@H](O[C@H]5[C@H](O)[C@@H](O)[C@@H](O[C@H]6[C@H](O)[C@@H](O)[C@@H](O[C@H]7[C@H](O)[C@@H](O)[C@@H](O[C@H]8[C@H](O)[C@@H](O)[C@@H](O[C@H]1[C@H](O)[C@H]2O)O[C@@H]8CO)O[C@@H]7CO)O[C@@H]6CO)O[C@@H]5CO)O[C@@H]4CO)O[C@@H]3CO	LuxR reporter, antagonist	DH5α sensor strain	10 µM, with: OHHL 200 nM	–	inhibition	-5 ± 1%
CC(C)Oc1c(NC(=O)c2ccc(NC(=O)[C@H](CC(N)=O)NC(=O)c3ccc(NC(=O)c4ccc(C#N)cc4)cc3)cc2)ccc(C(=O)Nc2ccc(C(=O)O)cc2)c1O	–	ATCC 25922, neutropenic mouse thigh infection	intravenous, 40 mg/kg/day, 10 mg/kg/dose	baseline: vehicle	bacterial burden reduction	5.32 log10 CFU/g
COC[C@H]1O[C@@H]2O[C@H]3[C@H](OC)[C@@H](OC)[C@@H](O[C@H]4[C@H](OC)[C@@H](OC)[C@@H](O[C@H]5[C@H](OC)[C@@H](OC)[C@@H](O[C@H]6[C@H](OC)[C@@H](OC)[C@@H](O[C@H]7[C@H](OC)[C@@H](OC)[C@@H](O[C@H]8[C@H](OC)[C@@H](OC)[C@@H](O[C@H]1[C@H](OC)[C@H]2OC)O[C@@H]8COC)O[C@@H]7COC)O[C@@H]6COC)O[C@@H]5COC)O[C@@H]4COC)O[C@@H]3COC	LuxR reporter, agonist	DH5α sensor strain	40 µM	–	bioluminescence	889 ± 20 RLU
CC(=O)Oc1ccc(-c2c(C(N)=O)c(N)n(N)c(=O)c2C#N)cc1	time-kill	–	1 x MIC, 180 min, 3 h	–	viable count	0 CFU
N=C(N)c1ccc(OCCS(=O)(=O)CCOc2ccc(C(=N)N)cc2)cc1	–	BW25113	concentration not given, lowest-FICI combination, with: rifampicin	–	MIC in combination	3.13 µg/mL
COC(=O)[C@H]1[C@H]2C[C@@H]3c4[nH]c5cc(OC)ccc5c4CCN3C[C@H]2C[C@@H](OC(=O)c2cc(OC)c(OC)c(OC)c2)[C@@H]1OC	tetracycline MIC, checkerboard	tetracycline-resistant (pBR322)	128 µM, with: tetracycline	baseline: MIC alone over combination	fold enhancement	4 fold
N=C(N)c1cccc(OCc2ccccc2COc2cccc(C(=N)N)c2)c1	–	BW25113	concentration not given, lowest-FICI combination, with: rifampicin	–	MIC in combination	100 µg/mL
Nc1ccc2c(c1)B(O)OC2	–	ATCC 25922	4xMIC, 1 h	–	post-antibiotic effect	0.69 ± 0.06 h
N[C@@H](CS)C(=O)O	chemotaxis pathway, FRET	MG1655	–	–	EC50	4.6 µM
N=C(N)c1ccc(OCCCCCCCCCCCOc2ccc(C(=N)N)cc2)cc1	–	BW25113	concentration not given, lowest-FICI combination, with: rifampicin	–	MIC in combination	3.13 µg/mL
Cc1ccc(C(C)C)c(OC2=C(Cl)C(=O)c3ccccc3C2=O)c1	–	MTCC 405	10 µg/mL	–	zone of inhibition	20 mm
NCC[C@H](O)C(=O)N[C@@H]1C[C@H](N)[C@@H](O[C@H]2O[C@H](CN)[C@@H](O)[C@H](O)[C@H]2O)[C@H](O)[C@H]1O[C@H]1O[C@H](CO)[C@@H](O)[C@H](N)[C@H]1O	–	CGMCC 1.9	concentration not given, 18 h, 37 °C	–	inhibition zone diameter	24.5 mm
C[C@@H](O)[C@H]1C(=O)N2C(C(=O)O)=C(SCCN=CN)C[C@H]12	–	2904, female ICR mice, peritonitis, lung	dose not given, 168 h	–	bacterial load	3.79 log CFU and 3.86 log CFU and 4.44 log CFU and 4.25 log CFU and 5.12 log CFU and 4.18 log CFU
NC(=O)C[C@H](N)C(=O)O	chemotactic response, attractant, FRET	–	–	–	EC50	0.9 µM
CC1=N/C(=C\c2cc(F)c(O)c(F)c2)C(=O)N1C	cytoplasmic accumulation, flow cytometry	–	–	–	lowest detectable concentration	10 nM

Structure (SMILES)	assay	system	conditions	scale	measurement	result
CN[C@H](CC(C)C)C(=O)N[C@H]1C(=O)N[C@@H](CC(N)=O)C(=O)N[C@H]2C(=O)N[C@H]3C(=O)N[C@H](C(=O)N[C@H](C(=O)O)c4cc(O)cc(O)c4-c4cc3ccc4O)[C@H](O)c3ccc(c(Cl)c3)Oc3cc2cc(c3O[C@@H]2O[C@H](CO)[C@@H](O)[C@H](O)[C@H]2O[C@H]2C[C@](C)(N)[C@H](O)[C@H](C)O2)Oc2ccc(cc2Cl)[C@H]1O	–	ATCC 25922	64 µg per disk	–	inhibition zone diameter	9 mm
NC[C@H]1O[C@H](O[C@H]2[C@H](O)[C@@H](O[C@H]3O[C@H](CO)[C@@H](O)[C@H](N)[C@H]3O)[C@H](N)C[C@@H]2N)[C@H](O)[C@@H](O)[C@@H]1O	–	–	concentration not given, 0.2 mg/mL	–	growth inhibition	82%
C#CCCCC(=O)NCC	LuxR reporter, antagonist	DH5α sensor strain	20 µM, with: OHHL 200 nM	–	inhibition	15%
O=C(N[C@H](CO)[C@H](O)c1ccc([N+](=O)[O-])cc1)C(Cl)Cl	–	ATCC 25922	–	baseline: 5% CO2 over ambient air	MIC fold shift	1
Cc1c(CN(C)C(=O)/C=C/c2cnc3c(c2)CC(NC(=O)OC(C)(C)C)C(=O)N3)oc2ccccc12 (centres unmarked)	broth microdilution	AR-0559	–	–	MIC	> 32 µg/mL
N[C@@H](CC(=O)O)C(=O)O	chemotactic response, attractant, FRET	–	–	–	EC50	0.5 µM
N#Cc1c(-c2ccc(OCc3ccccc3)cc2)c(C(N)=O)c(N)n(N)c1=O	time-kill	–	1 x MIC, 180 min, 3 h	–	viable count	0 CFU
CN(C)[C@@H]1C(O)=C(C(N)=O)C(=O)[C@@]2(O)C(O)=C3C(=O)c4c(O)cccc4[C@@](C)(O)[C@H]3C[C@@H]12	–	CGMCC 1.9	concentration not given, 18 h, 37 °C	–	inhibition zone diameter	0 mm
C[C@H](N)C(=O)O	chemotactic response, attractant, FRET	–	–	–	EC50	75.5 µM
NC[C@H]1O[C@H](O[C@H]2[C@H](O)[C@@H](O[C@H]3O[C@H](CO)[C@@H](O)[C@H](N)[C@H]3O)[C@H](N)C[C@@H]2N)[C@H](N)C[C@@H]1O	–	ATCC 25922	–	baseline: 5% CO2 over ambient air	MIC fold shift	4
CCC[C@@H]1C[C@@H](C(=O)N[C@@H]([C@H]2O[C@H](SC)[C@H](O)[C@@H](O)[C@H]2O)[C@H](C)Cl)N(C)C1	–	CGMCC 1.9	concentration not given, 18 h, 37 °C	–	inhibition zone diameter	0 mm
N=C(N)c1cccc(OCc2cccc(COc3cccc(C(=N)N)c3)c2)c1	checkerboard	BW25113	concentration not given, lowest-FICI combination, with: rifampicin	–	MIC of compound in combination	50 µg/mL
Cc1onc(-c2ccccc2)c1C(=O)N[C@@H]1C(=O)N2[C@@H]1SC(C)(C)[C@@H]2C(=O)O	–	CGMCC 1.9	concentration not given, 18 h, 37 °C	–	inhibition zone diameter	0 mm
N=C(N)c1ccc(OCc2ccc(COc3ccc(C(=N)N)cc3)cc2)cc1	–	BW25113	concentration not given, lowest-FICI combination, with: rifampicin	–	MIC in combination	25 µg/mL
COC[C@H]1O[C@@H]2O[C@@H]3[C@@H](OC)[C@@H](OC)[C@@H](O[C@@H]4[C@@H](OC)[C@@H](OC)[C@@H](O[C@@H]5[C@@H](OC)[C@@H](OC)[C@@H](O[C@@H]6[C@@H](OC)[C@@H](OC)[C@@H](O[C@@H]7[C@@H](OC)[C@@H](OC)[C@@H](O[C@@H]1[C@@H](OC)[C@H]2OC)O[C@@H]7COC)O[C@@H]6COC)O[C@@H]5COC)O[C@@H]4COC)O[C@@H]3COC	LuxR reporter, agonist	DH5α sensor strain	40 µM	–	bioluminescence	896 ± 46 RLU
N=C(N)c1ccc(OCCSCCOc2ccc(C(=N)N)cc2)cc1	–	BW25113	concentration not given, lowest-FICI combination, with: rifampicin	–	MIC in combination	100 µg/mL
NC[C@H]1O[C@H](O[C@H]2[C@H](O)[C@@H](O[C@H]3O[C@H](CO)[C@@H](O)[C@H](N)[C@H]3O)[C@H](N)C[C@@H]2N)[C@H](N)C[C@@H]1O	–	ATCC 25922	–	–	MIC	2.5 µM
N=C(N)c1ccc(OCc2ccc(-c3ccccc3)cc2COc2ccc(C(=N)N)cc2)cc1	checkerboard	BW25113	concentration not given, lowest-FICI combination, with: erythromycin	–	MIC of compound in combination	3.13 µg/mL
N=C(N)c1ccc(/N=N/Nc2ccc(C(=N)N)cc2)cc1	bacterial growth, inhibitor, OD600	M1/5	–	–	MIC90	82.8 µM (≈ 23.3 µg/mL)
